Results gathered from unrelated publications.
Numbered parts are unrelated; each lists some results of a single study.

Set 1
Target: Histone acetyltransferase KAT6A, winged helix 2, GST fusion (KAT6A, Homo sapiens, UniProt Q92794, residues 85-181)
Method: protein binding microarray
Molecule type: double-stranded DNA, one strand shown
Sample: in vitro
Tested at: not given
Setting: 8-mer, flanks averaged, mean of 2 arrays, mostly near background
Reference: not given
Direction: higher = stronger binding
Construct (chain): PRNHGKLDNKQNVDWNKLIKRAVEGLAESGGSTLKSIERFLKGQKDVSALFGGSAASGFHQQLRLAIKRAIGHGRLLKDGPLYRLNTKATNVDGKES
| Sequence | E-score |
| --- | --- |
| AGTAATAG | -0.111 |
| CGCTCTAC | -0.00234 |
| CCACTGAC | 0.167 |
| ATGCGATA | -0.00997 |
| TACGGGGA | -0.00717 |

Set 2
Target: RING finger protein unkempt homolog, zinc fingers 1-6, SBP tag (UNK, Homo sapiens, UniProt Q9C0B0, residues 30-357)
UniProt Q9C0B0, sequence (30-357, looked up): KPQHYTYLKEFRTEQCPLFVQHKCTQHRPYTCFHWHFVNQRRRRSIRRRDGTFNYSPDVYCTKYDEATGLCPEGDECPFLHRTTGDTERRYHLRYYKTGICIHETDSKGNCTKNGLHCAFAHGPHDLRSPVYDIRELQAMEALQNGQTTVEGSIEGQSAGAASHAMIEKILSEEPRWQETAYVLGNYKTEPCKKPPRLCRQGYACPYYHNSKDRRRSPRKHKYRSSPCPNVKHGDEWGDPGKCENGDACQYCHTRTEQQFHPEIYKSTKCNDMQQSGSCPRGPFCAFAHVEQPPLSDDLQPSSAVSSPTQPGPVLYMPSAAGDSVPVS
Method: RNA Bind-n-Seq
Molecule type: RNA
Sample: in vitro
Tested at: 100 nM
Setting: RNA with constant flanks, vertebrate orthologous sites, ends assumed
Reference: input RNA pool
Direction: higher = stronger binding
| Sequence | bound/input enrichment |
| --- | --- |
| GGGAGUUCUACAGUCCGACGAUCGGUAGAUUUUGUAAAACAGGAGCCCCAUAGGCUGUUUGAGCUUUGCUUUUUAUAUUUAAAUAGGAUACUUUUAUAUGAUGGGUGCUUUGAGUGUGACUGCAGCGGACUCAUUUCAGAGGUCAACAGAGGAUUGAGCAUCA | 1.29 ratio |
| GGGAGUUCUACAGUCCGACGAUCAAUAGUUUUAAGCUUGUUUGCACAGUUCUUUCCCUCCAUUGGAGAUGGAAUUCAUUGCCUUAGGUCUUUUUAAUAGUGUAUUGUUAUUGUUGGGCUGGCUCUAUGCUUGAAAACCAGUUUCAACAGAGGAUUGAGCAUCA | 1.93 ratio |
| GGGAGUUCUACAGUCCGACGAUCAAGAAAUGCUGGCUGCAAACCCUCAGGAUCGUCCAGAUGCUUUUGAACUAGAACUCCGAUUAGUACAAAUUGCGUUUAAAGACAGCAGCUGGGAAACGUGACACAUAUGUUGUUUGCCGACAACAGAGGAUUGAGCAUCA | 1.51 ratio |

Set 3
Target: Sal-like protein 4, full length isoform B (SALL4, Homo sapiens, UniProt Q9UJQ4-2, residues 1-616)
Method: universal PBM
Molecule type: double-stranded DNA, one strand shown
Sample: in vitro
Tested at: not given
Setting: 8-mer, flanks averaged, mean of replicates
Direction: higher = stronger binding
| Sequence | E-score |
| --- | --- |
| ACTGCCGC | -0.307 |
| AGGGCTTA | -0.0211 |
| CGAGTGTA | 0.0343 |
| GACGTCGA | -0.0936 |
| GCACTCAC | -0.159 |

Mixed results
| Substance | target | test | test system | setting | how to read | quantity | result |
| --- | --- | --- | --- | --- | --- | --- | --- |
| PhoQ, residues 284 288 289 292 302 303 GNNTDL | PhoP, residues 12 14 15 18 19 STWGI (Escherichia coli, UniProt P23836) | Sort-seq, measured: YFP reporter | E. coli | PhoQ-PhoP variant library, added: 10 µM Mg2+ | reference: high Mg2+ state, higher = stronger signaling | fold induction | 2.67 |

Excerpt of the above (set 1):
| Sequence | E-score |
| --- | --- |
| CGCTCTAC | -0.00234 |
